Published values of several laboratories.
Each numbered part is a random draw from the data of one study; scales do not carry over between parts.

Set 1 — method: universal PBM; form: double-stranded DNA, one strand shown; medium: in vitro; concentration: not given; reading: higher = stronger binding; endpoint: E-score
Target: Sal-like protein 4, full length isoform B (SALL4, Homo sapiens, UniProt Q9UJQ4-2, residues 1-616)
Setting: 8-mer, flanks averaged, mean of replicates
TAGTCCGA: -0.0195
GATACGGA: 0.0888
AAGATTCG: 0.0961
ATTGTTGC: 0.182
ATAGGCTA: 0.17
AGACAATA: 0.319
AACTATTC: 0.121
AGCGCTGA: -0.185
AATCCGCC: -0.182
AGTTACTC: 0.0954
ACCTGCGC: -0.198
CCTGGGGA: -0.287
AATCGTCG: -0.0878
CTTCAGAC: -0.0854
ACGCTGCC: -0.272
CTGCATTC: 0.0568
CGAGATCC: -0.242
ATGGAAGG: 0.0592
TGCTGAAA: 0.00521
GGTAGCAA: 0.0885
CCTGTATC: 0.101
CGGGAGGC: -0.358
AGAAACCG: -0.282
ATCGTCGG: -0.136

Set 2 — method: protein binding microarray; form: double-stranded DNA, one strand shown; medium: in vitro; concentration: not given; baseline: not given; reading: higher = stronger binding; endpoint: E-score
Target: Histone acetyltransferase KAT6A, winged helix 1, GST fusion (KAT6A, Homo sapiens, UniProt Q92794, residues 1-85)
Setting: 8-mer, flanks averaged, mean of 2 arrays, mostly near background
Construct (chain): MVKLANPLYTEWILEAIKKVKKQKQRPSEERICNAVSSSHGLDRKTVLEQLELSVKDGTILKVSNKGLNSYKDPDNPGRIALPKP
CACAGGCA: -0.237
TCAACGCA: 0.0266
CGGTCCGC: 0.358
AGCAACCT: 0.0306
AACATCAC: -0.111
CATACCCA: -0.242
AAGCGAGT: 0.00934
AGGAGAAA: -0.183
AGACTGAG: -0.146
GAATGCAC: -0.0699
AATCTCAA: -0.219
CTAGAGCC: 0.086
CCCCATAA: -0.219
AAATGATC: -0.103
CTGCCTTC: -0.0818
GTCCGCAA: 0.203
ATGTGCTG: -0.169
CAGATCTC: -0.168
CATCAAAC: -0.189
CTACGCTA: 0.298
ACAACCTG: -0.339

Set 3 — target: UBE2J2 UBC core domain (UniProt Q8N2K1); method: yeast two-hybrid; medium: yeast; setting: mostly zero background; baseline: not given; reading: higher = stronger interaction; endpoint: lacZ reporter activity
Sequence of UniProt Q8N2K1 (whole entry, looked up): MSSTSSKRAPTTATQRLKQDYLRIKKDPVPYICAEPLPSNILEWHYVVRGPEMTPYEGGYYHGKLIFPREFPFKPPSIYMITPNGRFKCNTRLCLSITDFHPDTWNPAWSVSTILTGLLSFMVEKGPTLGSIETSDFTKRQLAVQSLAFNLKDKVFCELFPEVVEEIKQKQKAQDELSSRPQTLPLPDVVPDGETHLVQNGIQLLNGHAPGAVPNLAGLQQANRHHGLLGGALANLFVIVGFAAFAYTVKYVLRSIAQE
B1: SH3RF1 RING domain (UniProt Q7Z6J0); chain DESALLDLLECPVCLERLDASAKVLPCQHTFCKRCLLGIVGSRNELRCPECRTLVGSGVEEL
B2: DZIP3 RING domain (UniProt Q86Y13); chain PDEEEEEEEPCVICHENLSPENLSVLPCAHKFHAQCIRPWLMQQGTCPTCRLHVLLPEEFP
B3: RFWD3 RING domain (UniProt Q6PCD5); chain ASMDEEEGDTCTICLEQWTNAGDHRLSALRCGHLFGYRCISTWLKGQVRKCPQCNKKARHSDIVV
B4: TRIM62 RING domain (UniProt Q9BVG3); chain MACSLKDELLCSICLSIYQDPVSLGCEHYFCRRCITEHWVRQEAQGARDCPECRRTFAEPALAP
B5: MAP3K1 RING domain (UniProt Q13233); chain NSIKDEEEQMCPICLLGMLDEESLTVCEDGCRNKLHHHCMSIWAEECRRNREPLICPLCRSKWRSHDFYS
B6: ZMIZ2 RING domain (UniProt Q8NF64); chain GTIPGTPGPNGEDGVEQTAIKVSLKCPITFRRIQLPARGHDCRHIQCFDLESYLQLNCERGTWRCPVCNKTALLEGLEVDQYMLGILIYIQNSDYEEITIDPTCSWK
B7: MDM4 RING domain (UniProt O15151); chain MEDCQNLLKPCSLCEKRPRDGNIIHGRTGHLVTCFHCARRLKKAGASCPICKKEIQLVIKVF
B8: RBCK1 RING domain (UniProt Q9BYM8); chain SLVLNTEPAECPVCYSVLAPGEAVVLRECLHTFCRECLQGTIRNSQEAEVSCPFIDNTYSCSGKLLEREIK
B1 (SH3RF1 RING domain): 0
B2 (DZIP3 RING domain): 0
B3 (RFWD3 RING domain): 0
B4 (TRIM62 RING domain): 0
B5 (MAP3K1 RING domain): 0
B6 (ZMIZ2 RING domain): 0
B7 (MDM4 RING domain): 0
B8 (RBCK1 RING domain): 0
PEDRESLKSACVVCLSSFKSCVFLECGHVCSCTECYRALPEPKKCPICRQAITRVIPLY (MUL1 RING domain (UniProt Q969V5)): 12700

Set 4 — method: RNA Bind-n-Seq; form: RNA; medium: in vitro; concentration: not given; baseline: input RNA pool; reading: higher = stronger binding; endpoint: bound/input enrichment
Target: RING finger protein unkempt homolog, zinc fingers 1-6, GST-SBP tag (UNK, Homo sapiens, UniProt Q9C0B0, residues 30-357)
Sequence of UniProt Q9C0B0 (30-357, looked up): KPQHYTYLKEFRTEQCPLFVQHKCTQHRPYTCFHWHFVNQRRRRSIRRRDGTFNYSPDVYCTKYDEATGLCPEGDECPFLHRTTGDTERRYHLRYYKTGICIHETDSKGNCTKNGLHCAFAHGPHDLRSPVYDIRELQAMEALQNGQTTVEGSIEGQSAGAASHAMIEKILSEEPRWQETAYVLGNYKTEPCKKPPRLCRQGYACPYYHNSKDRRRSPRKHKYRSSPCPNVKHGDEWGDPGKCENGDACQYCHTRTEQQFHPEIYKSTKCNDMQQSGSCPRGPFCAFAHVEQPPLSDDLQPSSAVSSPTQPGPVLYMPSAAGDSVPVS
Setting: RNA with constant flanks, human and mouse sites, ends assumed
Shared flanks, not repeated: GGGAGUUCUACAGUCCGACGAUC … CAACAGAGGAUUGAGCAUCA
AAAGAGAAAGAUGAAAUGGUAGAGCAAGAGUUUAACCGGUUGCUAGAAGCUACAUCUUACCUUAGUCAUCAACUAGACUUCAAUGUCCUCAAUAAUAAGCCUGUGUCCCUUGGCCAGGCA: 0.373 ratio
GUUUCUUCUUCUGGACAGAUAAGGGUACAUUUUUGUGCUGAUAAAGUGAAUGCUGCAAGGGGAUUUAAUGCUACUUACCAAGUAGAUGGGUUCUGUUUGCCAUGGGAAAUACCCUGUGGA: 0.27 ratio
GUUCUGGAUAAUUCUGGCUUUGAACUGAUUACGGAUUUAGUAUUGGCGGACUUUUUAUUUUCCUCGGAGUUAGCUACUGAGAUUCAUUUCCAUGGGAAAAGCAUCCCAUGGUUUGUGUCU: 0.253 ratio
CUUAAAAACAAAGAUCCCAAGAUGGCUCGAGUUGCACUGGAAUCUCUCUACAGAUUACUUUGGGUUUACAUGAUUCGAAUUAAAUGUGAAAGCAACACAGCUACUCAGAGCCGACUUAUA: 0.219 ratio
CCAGAAUCAAUGGGGUUUAUCAUUUAUAAAUGAGCCCAGUGCUGGCCCAGAGACUGUUAUUGGAAAGUCAUCAGAUCAUAAAGUGAUGGAAGUGACAUUUCAAGGAGAAUAUCCUGCCAC: 0.146 ratio
AUUUCAAAAGGAAAUCGGUAGAGGUGCCAGGUAUUGCAGAAAUAGUUGCUAUACUGAGAUUUGUUUUCGGUUUUUACCUUGGCUUUUUUCUUAACUUUAACUUGCAAAGGUUUCAUCUUG: 0.187 ratio
AGGGUUGAUGUUCUGAAGAACCACUUGGUAAAAGAAGGGCGGGUGGAUGAAGAAAUUGCACUAAGAAUUAUCAAUGAGGGUGCUGCCAUACUUCGGCGGGAGAAAACCAUGAUAGAAGUA: 0.496 ratio
GUCGACGUGUGCAGAAAUCCUGCUAGUCUGGUCCUUGUUUCCAUCUGGGUACCAGCUCCCUUUAGCCUUGCAGACGGUGGUGCGAGAGGCCAGCGGCCAGAAGAGACAGCUUGCUUCAAU: 0.454 ratio
AUAGAAACCUUGAUUGGCAAAAAGCAACAGAUAUCUCUUGCAACACAAAUGGUUAGAAUGAUUUUGAAGAUUGAUGACAUUCGUAAGCCUGGAGAAUCUGAAGAAUGAAGACAUUGAGAA: 0.273 ratio

Set 5 — method: RNA Bind-n-Seq; form: RNA; medium: in vitro; concentration: 1 µM; setting: whole 134-nt RNA, ends assumed; together with: 150 mM KCl; baseline: input library; reading: higher = stronger binding; endpoint: log2 enrichment
Target: Ras GTPase-activating protein-binding protein 1, C-terminal RGG region (G3BP1, Homo sapiens, UniProt Q13283)
Sequence of UniProt Q13283 (whole entry, looked up): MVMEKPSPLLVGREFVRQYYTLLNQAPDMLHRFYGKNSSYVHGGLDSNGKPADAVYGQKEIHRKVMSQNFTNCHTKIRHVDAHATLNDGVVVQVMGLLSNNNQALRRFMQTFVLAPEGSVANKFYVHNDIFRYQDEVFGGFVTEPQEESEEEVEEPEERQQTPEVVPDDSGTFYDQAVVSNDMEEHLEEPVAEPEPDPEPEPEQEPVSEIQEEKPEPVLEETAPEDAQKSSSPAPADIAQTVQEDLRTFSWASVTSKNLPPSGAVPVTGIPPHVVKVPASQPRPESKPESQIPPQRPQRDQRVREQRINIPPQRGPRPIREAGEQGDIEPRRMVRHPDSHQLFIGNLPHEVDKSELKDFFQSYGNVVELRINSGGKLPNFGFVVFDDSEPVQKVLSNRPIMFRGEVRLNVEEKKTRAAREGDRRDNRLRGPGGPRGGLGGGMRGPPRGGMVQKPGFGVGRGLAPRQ
Shared flanks, not repeated: GGGAGUUCUACAGUCCGACGAUC … UGGAAUUCUCGGGUGUCAAGG
UCCUGUGCUACACAUCGUAUGUACCGAAUCGGGUUUUUUGGUUUUUUGGGGUUUUUUGGAAAGUAUUAUGUUACGCCGUUCGGAUCUGCA: -0.621
UCAAGUCCUGUGCUACACAUCGUAUGUACCGAAUCGGGGCCGGGGCCGGGCCGGAAAGUAUUAUGUUACGCCGUUCGGAUCUGCACUUCC: -1.9
GCUGUGACCCCAACGCCGGUGCCCGUGGUCGGGAGCCAGAUGACCAGACAAGCCCGGCGCCUCUACGUGGGCAACAUCCCCUUUGGCAUC: -0.932
ACCAUGCAGGUGGGCAUCUUUGGGAAGUGGGGCAAGGGGGGUAUAGGGAGGGGGGUAACACUUUGGGAACAGGUGGUCCCAGGUCGUUUC: 2.06
GUCCUGUGCUACACAUCGUAUGUACCGAAUCAAAUUUAAAUUUUUAAACCCCCCCAAAAAAGUAUUAUGUUACGCCGUUCGGAUCUGCAC: -0.475
CACAGACAACACGCACCCACACAGACACAGAGGGAAGGGGUUGGGAUGGGGACAGGGUGCACAGCAGGGCGGGGGAGGACCCCAGCCCCU: -0.106
UCCUGUGCUACACAUCGUAUGUACCGAAUCAAACCCCCCCAAACCCCCCCAAAUUUAAAAAAGUAUUAUGUUACGCCGUUCGGAUCUGCA: -0.747
AGUCCUGUGCUACACAUCGUAUGUACCGAAUCGGGUUUUUGGGGUUUUUGGUUUUUGGAAAGUAUUAUGUUACGCCGUUCGGAUCUGCAC: -1.27
CCUGUGCUACACAUCGUAUGUACCGAAUCGGGUUUUUGGGAAAAAAAGGGAAAAAAAGGGAAAGUAUUAUGUUACGCCGUUCGGAUCUGC: -1.98
UGGCCCUGGUGGCAUGCGGGGAGGAAGAGGUGGCCUCAUGGAGCGUGGUGGUCCCGGUGGAAUGUUCAGAGGUGGCCGUGGUGGAGACAG: 2.23
UCAAGUCCUGUGCUACACAUCGUAUGUACCGAAUCGGAGGAAAAAGGUUUUUGGAAAGUAUUAUGUUACGCCGUUCGGAUCUGCACUUCC: -1.35
AGUCCUGUGCUACACAUCGUAUGUACCGAAUCAAAUUUAAACCCCCCCAAAUUUAAAAAAGUAUUAUGUUACGCCGUUCGGAUCUGCACU: -0.689
ACCAUGCAGGAGGGCAUCUUUGGGAAGUGGGGCAAGGGGGGGAUAGGGAGGGGGGUAACACUUUGGGAACAGGUGGUCCCAGGUCGUUUC: -1.13
AAGUCCUGUGCUACACAUCGUAUGUACCGAAUCGGGAAAGGGAAAAAAAGGGAGGGAAAGUAUUAUGUUACGCCGUUCGGAUCUGCACUU: 0.851

Repeated from above (set 1):
AACTATTC: 0.121
AGTTACTC: 0.0954
GATACGGA: 0.0888
CCTGGGGA: -0.287
CTGCATTC: 0.0568
CTTCAGAC: -0.0854
CCTGTATC: 0.101
AATCGTCG: -0.0878
AGCGCTGA: -0.185
